Results gathered from unrelated publications.
Parts stem from different laboratories: compare values within a part only. Changes are numbered by the printed parent chain.

Set 1
Target: Sal-like protein 4, full length isoform B (SALL4, Homo sapiens, UniProt Q9UJQ4-2, residues 1-616)
Method: universal PBM
Form: double-stranded DNA, one strand shown
Matrix: in vitro
Tested at: not given
Setting: 8-mer, flanks averaged, mean of replicates
Reading: higher = stronger binding
Strand	E-score
GCGAGCAA	-0.216
TAAGTGGA	0.154
CCTTACAA	0.0978
AATTCGAT	0.181
ACTACTCG	0.0497
CAGCGAAC	-0.139
CGTATCTC	-0.1
GGGGTAAC	-0.121
GCTTCGGA	-0.0644

Set 2
Target: Histone acetyltransferase KAT6A, both winged helices, GST fusion (KAT6A, Homo sapiens, UniProt Q92794, residues 1-181)
Method: protein binding microarray
Form: double-stranded DNA, one strand shown
Matrix: in vitro
Tested at: not given
Setting: 8-mer, flanks averaged, mean of 2 arrays, mostly near background
Baseline: not given
Reading: higher = stronger binding
Target sequence (chain): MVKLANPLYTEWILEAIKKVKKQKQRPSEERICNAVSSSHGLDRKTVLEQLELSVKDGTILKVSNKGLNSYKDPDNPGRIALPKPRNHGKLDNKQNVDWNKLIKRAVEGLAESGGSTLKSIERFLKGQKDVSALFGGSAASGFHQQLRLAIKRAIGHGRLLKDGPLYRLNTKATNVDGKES
Strand	E-score
TACAGCGA	-0.0923
CTAGCCTC	-0.207
TACTGCGA	-0.0592
ATGGCATG	-0.0379
CAATTTGA	-0.0705
TGCAGACA	-0.122
ATCACGGC	0.314
CGTACTTC	0.145
AAACGCCT	-0.0757

Set 3
Target: ABI1, truncated, D143A, DHFR fusion (Arabidopsis thaliana)
Method: DHFR PCA, deep sequencing
Matrix: yeast
Setting: methotrexate growth selection, single substitutions
Added: (+)-ABA 2500 µM
Baseline: wild-type fitted maximum
Reading: higher = stronger binding
Parent: PYL1, truncated, DHFR fusion (Arabidopsis thaliana); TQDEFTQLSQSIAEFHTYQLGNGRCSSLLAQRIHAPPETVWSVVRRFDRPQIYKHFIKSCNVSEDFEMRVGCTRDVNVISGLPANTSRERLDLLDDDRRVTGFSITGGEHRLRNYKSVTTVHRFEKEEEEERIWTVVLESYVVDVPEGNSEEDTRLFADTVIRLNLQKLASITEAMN
Variant	relative binding score
V121N	-6.22%
R132G	110%
A30T	100%
F56V	59.1%

Mixed results
Substance	target	assay	system	conditions	scale	measurement	result
PhoQ, residues 284 288 289 292 302 303 AANNSF	PhoP, residues 12 14 15 18 19 MHTVL (Escherichia coli, UniProt P23836)	Sort-seq, refers to: YFP reporter	E. coli	PhoQ-PhoP variant library, added: 10 µM Mg2+	baseline: high Mg2+ state, higher = stronger signaling	fold induction	16.3

For quick reference, copied from above (set 2):
Strand	E-score
CAATTTGA	-0.0705
ATCACGGC	0.314
TACAGCGA	-0.0923
CTAGCCTC	-0.207
